Measurements from different studies.
Each numbered part is a random draw from the data of one study; scales do not carry over between parts. Substitutions count along the parent as printed.

Series 1
Target: OGT, full length, His-tagged (human)
Method: phage display, sequencing
Sample: in vitro
Concentration: 1 µg OGT
Notes: single substitutions, 15-mer displayed peptide, unchanged parent 6.14
Relative to: input library
Direction: higher = stronger binding
Starting sequence: peptide; VAYPNSYMPKYQIST
Variant | fold enrichment [fold]
VAYPNSYMPKYFIST [Q12F] | 1
VAYPQSYMPKYQIST [N5Q] | 6.73
VAYPNSYMPEYQIST [K10E] | 0.308
VAYPNLYMPKYQIST [S6L] | 15.6
VAYPNSYMPKYEIST [Q12E] | 1.12
VAYLNSYMPKYQIST [P4L] | 7.68
VANPNSYMPKYQIST [Y3N] | 4.49
VAYPNSYMPKLQIST [Y11L] | 1.48
VAYPNSYTPKYQIST [M8T] | 1.15
VRYPNSYMPKYQIST [A2R] | 2.6
VIYPNSYMPKYQIST [A2I] | 5.7
VAYPNSYRPKYQIST [M8R] | 1.45
VAYPNSQMPKYQIST [Y7Q] | 1.1
VAHPNSYMPKYQIST [Y3H] | 0.406
VAYPLSYMPKYQIST [N5L] | 4.95
FAYPNSYMPKYQIST [V1F] | 8.79
VAYPNSYMPYYQIST [K10Y] | 2.73
VAYKNSYMPKYQIST [P4K] | 5.69
VAYPASYMPKYQIST [N5A] | 5.4
VAFPNSYMPKYQIST [Y3F] | 6.72
VAYPNSYMPKPQIST [Y11P] | 0.0143

Series 2
Target: Histone acetyltransferase KAT6A, winged helix 2, GST fusion (KAT6A, Homo sapiens, UniProt Q92794, residues 85-181)
Method: protein binding microarray
Form: double-stranded DNA, one strand shown
Sample: in vitro
Concentration: not given
Notes: 8-mer, flanks averaged, mean of 2 arrays, mostly near background
Relative to: not given
Direction: higher = stronger binding
Residues (chain): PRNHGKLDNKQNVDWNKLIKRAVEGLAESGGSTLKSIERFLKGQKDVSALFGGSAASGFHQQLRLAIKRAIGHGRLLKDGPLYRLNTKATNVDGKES
Sequence | E-score
AGTGTTTA | -0.00304
GAGTCAGA | -0.0147
CTGAGTCA | -0.0976
ACTCATCC | -0.0782
GGCAATAC | 0.0732
AAGCCCCA | -0.0997
ACATCAGG | -0.111
ATGTGTGC | -0.212
ATGACAAA | -0.0164
GAATAACC | -0.18
ATGGGAGG | -0.0499
GTCTACTA | 0.0585
CCAGGAAG | -0.119
AGACCTTG | -0.0254
AATTAATC | 0.205
AACATGCG | -0.109
ATCGCTTA | -0.145
CGCTCAAC | 0.0885
AGATGGGG | -0.0917
ATCGAGAT | -0.0341

Series 3
Target: Interferon regulatory factor 3, full length, phosphomimetic (IRF3, Homo sapiens, UniProt Q14653, residues 1-427, S386D/S396D/S398D/S402D/T404D/S405D)
Method: protein-binding microarray
Form: double-stranded DNA, one strand shown
Sample: in vitro
Concentration: 2540 nM top
Notes: 60-bp whole probe
With: salmon DNA 0.4 mg/ml
Relative to: random background probes
Direction: higher = stronger binding
Shared flanks, not repeated: GCCTAGCAC … GTCTTGATTCGCTTGACGCTGCTG
Residues (chain): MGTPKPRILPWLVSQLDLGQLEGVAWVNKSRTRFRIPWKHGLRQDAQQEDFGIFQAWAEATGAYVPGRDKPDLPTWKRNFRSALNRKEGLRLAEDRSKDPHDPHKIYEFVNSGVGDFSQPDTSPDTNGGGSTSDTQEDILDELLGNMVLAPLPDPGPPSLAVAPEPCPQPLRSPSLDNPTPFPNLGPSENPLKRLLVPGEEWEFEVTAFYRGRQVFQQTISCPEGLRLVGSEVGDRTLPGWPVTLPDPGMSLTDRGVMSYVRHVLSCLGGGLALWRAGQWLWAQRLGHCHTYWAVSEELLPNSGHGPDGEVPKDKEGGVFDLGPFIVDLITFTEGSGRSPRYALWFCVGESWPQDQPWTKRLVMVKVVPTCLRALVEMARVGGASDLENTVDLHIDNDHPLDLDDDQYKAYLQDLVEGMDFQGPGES
Sequence | fitted relative affinity
TTAGGACTTGGGTTTCGGTTAGTGCTA | 2.57 z-score
GACGGTCTCTGACTGGGGACGTGCTAG | -0.304 z-score
TTGGGTTTCCTACTGCTTTAGTGCTAG | 3.2 z-score
GACGGTCTCCTGCTCCTGACGTGCTAG | 0.568 z-score
TTAGATCTCAGTTTCGATTGGTGCTAG | 2.76 z-score
AGGGTCCCGCGATTCGACACGTGCTAG | -0.721 z-score
TCACGTCTCTATCAAAAACTGTGCTAG | 0.124 z-score
TTAGGACTGGACATTCGGTTAGTGCTA | -0.348 z-score
TTAGGTATCGGGACTTGGTTAGTGCTA | 0.724 z-score
GACGCACTGGGGTATCGGGACGTGCTA | -0.505 z-score
GACGGTATCGGTTCCGGGACGTGCTAG | 6.35 z-score
TCATATGTATATATGTGACTGTGCTAG | 0.409 z-score
TTAGATATCTGACTGGATTAGTGCTAG | -0.238 z-score
TTAGGTCTTCTTTTCCTTTAGTGCTAG | 1.73 z-score
GACGATAACAGACTGGAGACGTGCTAG | -0.315 z-score
TCAAGTTTCCATTTTCTACTGTGCTAG | 8.55 z-score
TTAGGTCTCGGACTAGGTTAGTGCTAG | 0.0123 z-score
TCACTTTTTTTTTTTTTACTGTGCTAG | 1.39 z-score
ATGTCTTCCCCTCTCATTCCGTGCTAG | 0.983 z-score
TTAGGTATCCTCATCCTTTAGTGCTAG | 1.83 z-score
GTCGGTATCGACTATCGGGACGTGCTA | 1.52 z-score
GACGAGCTGGGGACTGGAGACGTGCTA | -1.2 z-score
GACGGTTACGGTATCGGGACGTGCTAG | 1.7 z-score
TCATTTTCATTTTATGACACTGTGCTA | 4.13 z-score
GACGGTCTAGGTCTCGGGACGTGCTAG | -0.337 z-score

Series 4
Target: RNA binding protein fox-1 homolog 2, RRM domain, GST-SBP tag (RBFOX2, Homo sapiens, UniProt O43251-10, residues 100-194)
Method: RNA Bind-n-Seq
Form: RNA
Sample: in vitro
Concentration: 365 nM
Notes: natural RNA segment, single round, ends assumed
Relative to: no-protein control
Direction: higher = stronger binding
Residues (chain): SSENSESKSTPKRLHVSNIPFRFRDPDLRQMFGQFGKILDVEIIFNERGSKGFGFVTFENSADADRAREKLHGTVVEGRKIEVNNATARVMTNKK
Sequence | RBNS enrichment (R)
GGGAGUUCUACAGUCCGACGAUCCUAAGUGGGUCCUUAUGUACACACCACGUUCACACACACACAGAGGGACCACGUGUGCACGCAUGACCGUGUGGGUGGCGGCGUUUGCUGUGAACCACGCUCAGGCCACAUGGAAUUCUCGGGUGCCAA | 1.72
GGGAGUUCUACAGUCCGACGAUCACCGUAUCAUGUGGUGGCUUUAUUUCUACACUUCUUGCCCACCAUGGAUGGCCUGAAGAAGCUGUUCUCCAGCCACAACAACCACAGAAAGCCCCUCGCUCUCCCCUCUCUGGAAUUCUCGGGUGCCAA | 0.321
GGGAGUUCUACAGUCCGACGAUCCAGAGGGCGGGGCACACCUCAGUUUUCUAUCACCUUCCUACCAGAGGGGAAAGUAACCUGAACUUUAAUGUCUUUUGGAACAAAACCAAAGUUUAAGAUUUGCCAUAUGAUGGAAUUCUCGGGUGCCAA | 0.555
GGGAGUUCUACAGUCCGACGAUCCCAGUGAAGUAUGCUCUUGGGUCUUUGGCAAAGCUGGAAAGAGAAAGGGCCUCCUUGUUCUUUCCCAGAAACAUUCAGUGGCUUGGACCAACCCCUGAGUAUAUACAUUGUGGAAUUCUCGGGUGCCAA | 0.551
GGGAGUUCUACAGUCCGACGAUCCUGUCCCCAGCCACACCUUGGGGCAUCCUCUCUGCCUGGCCCUGUCUGAUGAGCAUUUCUGUUGCUUCCAUCAGCCAGAGCUCUGCCAAAGGCCCCGCAUCCCCAUCCUAUGGAAUUCUCGGGUGCCAA | 0.286
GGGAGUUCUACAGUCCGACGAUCUACACCCUUCAUGGAAGUGUUGACAUGUGCCAAAGGGUACUCUGCACAUCACUUCCUUCCUGAAAGCCUAAGAGUGUGUAUGUUUGUGUAUGCACAGAGCAGACAGACUAUGGAAUUCUCGGGUGCCAA | 0.268
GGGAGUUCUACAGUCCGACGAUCCCCAGUAUGCUGUGUAUGCAGCAGGGACUCUUUUCCCCACAUGCCAGGAUGACUUGGAUCUGGGAAGGGCGUGUCAUCUCAGUUUGUUCCUCCCGCACCCCUCCUCCCCCUGGAAUUCUCGGGUGCCAA | 0.423
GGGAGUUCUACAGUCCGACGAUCCUUCUUGGUUAUUUUCAGAUGAACAGUAACUGCUACACUCUUGAAAGCACUUAAAAGUGCAAGCAUGUCCUAAAUAGCCAUUUAACCUGGUAAAACAUAGGCUUUUCUGUUGGAAUUCUCGGGUGCCAA | 1.08
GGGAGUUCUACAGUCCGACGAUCGAAGCAGUUGCUCCACUGGAAUUUCUAUAAAGCUGGGUAAAGGGUUAGCAGAAUUACAGAUCUUAAGUACUAACUGCAGUCCAAGAUGGAAGAGUACUCAGCAGCCACUGUGGAAUUCUCGGGUGCCAA | 0.593
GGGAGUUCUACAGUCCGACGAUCCAGAGUUGUGUUUUUCUUUAUAAACAAAUGAUAAACUAGCUUUUUUAAAAAGUGACUGUUAGAACUUUUUUAGCUCUGAGUAGUGGUCCCUUUUUAAACUCCUGGAAACAUGGAAUUCUCGGGUGCCAA | 0.358
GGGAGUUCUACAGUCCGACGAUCGGCGUUUUUAUUAGCGGUCCUGAGUAAUUUCCCUUGGCAAAAUUCCCAGUUUUGCCACUCUCUGGAGCCAGAUCCUGGGAGCUGUCAGCAAGGAGCAGGUAAGUGAGCAGUGGAAUUCUCGGGUGCCAA | 0.39
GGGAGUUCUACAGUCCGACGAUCCCCUUAGCCAUUCCCACCCAUCUGUAACAAUGAUCUGGGAGCUCGGCUCCAAGCAUCCCUGGUUACCUGUUCAGCCUGCAAGGCCGAUGUAUAGUGUACCUCAAUUCACAUGGAAUUCUCGGGUGCCAA | 0.329

Series 5
Target: ABI1, truncated, D143A, DHFR fusion (Arabidopsis thaliana)
Method: DHFR PCA, deep sequencing
Sample: yeast
Notes: methotrexate growth selection, single substitutions
With: (+)-ABA 710 µM
Relative to: wild-type fitted maximum
Direction: higher = stronger binding
Starting sequence: PYL1, truncated, DHFR fusion (Arabidopsis thaliana); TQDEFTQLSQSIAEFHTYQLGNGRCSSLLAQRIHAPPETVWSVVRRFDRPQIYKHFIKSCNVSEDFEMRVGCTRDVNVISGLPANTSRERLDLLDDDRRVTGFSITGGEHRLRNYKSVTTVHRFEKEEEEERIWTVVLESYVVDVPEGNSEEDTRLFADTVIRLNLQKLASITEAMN; partner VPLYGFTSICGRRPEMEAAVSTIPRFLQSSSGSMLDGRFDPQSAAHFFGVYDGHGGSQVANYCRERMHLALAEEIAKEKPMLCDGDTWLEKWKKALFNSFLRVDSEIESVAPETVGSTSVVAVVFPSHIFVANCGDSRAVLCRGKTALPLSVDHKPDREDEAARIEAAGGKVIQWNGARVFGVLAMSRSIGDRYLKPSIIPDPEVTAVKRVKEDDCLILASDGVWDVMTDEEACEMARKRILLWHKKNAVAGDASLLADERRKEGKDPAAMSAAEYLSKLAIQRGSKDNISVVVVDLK
Variant | relative binding score [%]
Q19L | 97.8
I133V | 111
R45C | 80.9
A175N | 95.5
D75Q | 93.4
D75W | 97
I52R | 102
N149L | 65
N85P | 76.1
V100I | 112
A30N | 97.8
L166C | 41.8
L93P | 9.76
T135E | -5.03
S26M | 98.4
K54G | -6.19

Single results of other studies
Form: peptide
Direction: direction not given
Molecule | target | assay | system | setting | endpoint | value
REASKSRVQLFKDDPM | human cyclin E1-Cln2 fusion | yeast growth, competitive growth deep sequencing | Saccharomyces cerevisiae | peptide tiling library | enrichment score | -1.99
GSAKRRLFGEDPP | human cyclin F | cyclin docking binding, deep mutational scanning | yeast cyclin F-Cln2 system | – | Cln2-subtracted enrichment score | 5.12
LLRRLQDVANDRG | Cln2 (Saccharomyces cerevisiae) | peptide binding, competitive growth sequencing | Saccharomyces cerevisiae, unfused Cln2 strain | mutational scanning library 2 | enrichment score | -1.67
